Measurements collected from several papers.
Lines come from different studies, so protocols differ.
PIK3CD: Phosphatidylinositol 4,5-bisphosphate 3-kinase catalytic subunit delta isoform (PIK3CD, Homo sapiens, UniProt O00329)
Chain of UniProt O00329 (whole entry, looked up): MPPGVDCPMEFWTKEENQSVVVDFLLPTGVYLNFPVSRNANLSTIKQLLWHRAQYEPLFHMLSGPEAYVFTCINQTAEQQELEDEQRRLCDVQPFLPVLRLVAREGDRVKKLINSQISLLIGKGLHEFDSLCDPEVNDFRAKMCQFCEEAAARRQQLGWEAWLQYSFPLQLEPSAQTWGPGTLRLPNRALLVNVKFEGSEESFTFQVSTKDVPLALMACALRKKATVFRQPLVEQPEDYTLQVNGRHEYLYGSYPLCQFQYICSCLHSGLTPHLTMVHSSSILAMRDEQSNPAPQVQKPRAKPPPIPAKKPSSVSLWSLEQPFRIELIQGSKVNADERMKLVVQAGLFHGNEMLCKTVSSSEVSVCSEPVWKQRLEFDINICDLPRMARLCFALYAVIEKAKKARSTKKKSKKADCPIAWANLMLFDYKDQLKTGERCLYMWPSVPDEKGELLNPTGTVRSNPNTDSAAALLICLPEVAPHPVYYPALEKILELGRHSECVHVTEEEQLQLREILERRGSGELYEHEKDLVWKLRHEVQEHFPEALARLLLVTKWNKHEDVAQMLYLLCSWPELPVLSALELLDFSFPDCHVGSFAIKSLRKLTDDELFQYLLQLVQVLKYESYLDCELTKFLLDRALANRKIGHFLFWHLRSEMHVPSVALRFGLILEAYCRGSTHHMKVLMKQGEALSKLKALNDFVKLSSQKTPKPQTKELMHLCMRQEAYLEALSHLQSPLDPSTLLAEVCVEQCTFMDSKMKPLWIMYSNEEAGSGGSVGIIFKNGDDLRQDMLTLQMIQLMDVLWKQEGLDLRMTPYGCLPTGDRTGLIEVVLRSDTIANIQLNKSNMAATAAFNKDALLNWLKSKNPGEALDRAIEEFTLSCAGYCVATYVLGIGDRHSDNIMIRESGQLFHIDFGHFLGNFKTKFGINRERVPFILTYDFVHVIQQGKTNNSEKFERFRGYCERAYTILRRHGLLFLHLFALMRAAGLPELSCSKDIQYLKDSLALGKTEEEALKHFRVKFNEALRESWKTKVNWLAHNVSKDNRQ
Chain of UniProt P34972 (whole entry, looked up): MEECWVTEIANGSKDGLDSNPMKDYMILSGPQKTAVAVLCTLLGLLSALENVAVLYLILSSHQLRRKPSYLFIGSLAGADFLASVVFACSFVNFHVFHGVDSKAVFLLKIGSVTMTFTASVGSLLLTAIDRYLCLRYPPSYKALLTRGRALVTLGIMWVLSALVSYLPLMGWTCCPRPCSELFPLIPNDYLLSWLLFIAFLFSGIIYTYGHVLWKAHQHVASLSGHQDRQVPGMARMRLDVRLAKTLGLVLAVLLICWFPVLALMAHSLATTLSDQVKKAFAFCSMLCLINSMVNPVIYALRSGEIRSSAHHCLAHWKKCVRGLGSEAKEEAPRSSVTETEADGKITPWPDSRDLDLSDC
Chain of UniProt Q92831 (whole entry, unmodified, looked up): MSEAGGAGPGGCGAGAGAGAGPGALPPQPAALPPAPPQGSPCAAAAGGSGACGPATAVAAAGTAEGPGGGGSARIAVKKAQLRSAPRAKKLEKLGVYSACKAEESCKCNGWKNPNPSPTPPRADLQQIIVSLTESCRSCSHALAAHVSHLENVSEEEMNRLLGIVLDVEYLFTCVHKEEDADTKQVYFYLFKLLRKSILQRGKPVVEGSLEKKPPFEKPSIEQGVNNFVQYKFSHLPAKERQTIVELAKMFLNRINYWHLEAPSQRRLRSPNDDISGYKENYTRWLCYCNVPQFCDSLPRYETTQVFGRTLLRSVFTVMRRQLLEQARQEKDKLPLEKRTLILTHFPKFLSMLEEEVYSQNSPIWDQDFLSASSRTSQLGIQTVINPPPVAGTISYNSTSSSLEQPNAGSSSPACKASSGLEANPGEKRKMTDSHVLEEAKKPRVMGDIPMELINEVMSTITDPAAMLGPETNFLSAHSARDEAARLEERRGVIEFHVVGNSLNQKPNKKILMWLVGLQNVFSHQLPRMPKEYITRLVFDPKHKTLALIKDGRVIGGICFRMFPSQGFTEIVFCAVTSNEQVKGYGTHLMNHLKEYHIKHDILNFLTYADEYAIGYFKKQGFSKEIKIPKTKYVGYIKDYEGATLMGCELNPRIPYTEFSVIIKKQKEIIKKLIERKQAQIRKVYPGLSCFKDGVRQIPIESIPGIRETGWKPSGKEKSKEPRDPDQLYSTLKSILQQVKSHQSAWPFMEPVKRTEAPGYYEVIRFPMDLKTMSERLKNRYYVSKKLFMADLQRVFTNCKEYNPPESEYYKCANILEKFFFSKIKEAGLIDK
Chain of UniProt O94921 (whole entry, looked up): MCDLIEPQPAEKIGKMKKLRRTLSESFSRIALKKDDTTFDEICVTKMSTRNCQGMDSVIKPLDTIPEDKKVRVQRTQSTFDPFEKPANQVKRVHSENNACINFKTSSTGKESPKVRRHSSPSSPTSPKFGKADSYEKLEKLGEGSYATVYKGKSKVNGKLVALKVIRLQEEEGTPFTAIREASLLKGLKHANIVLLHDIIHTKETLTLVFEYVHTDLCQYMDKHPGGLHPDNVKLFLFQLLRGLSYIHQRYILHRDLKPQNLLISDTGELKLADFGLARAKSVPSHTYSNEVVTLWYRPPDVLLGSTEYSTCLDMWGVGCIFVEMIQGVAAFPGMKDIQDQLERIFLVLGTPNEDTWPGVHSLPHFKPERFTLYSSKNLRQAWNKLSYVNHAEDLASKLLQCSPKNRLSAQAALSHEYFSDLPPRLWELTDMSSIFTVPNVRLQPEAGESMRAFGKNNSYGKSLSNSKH
Chain of UniProt Q6XUX3 (whole entry, looked up): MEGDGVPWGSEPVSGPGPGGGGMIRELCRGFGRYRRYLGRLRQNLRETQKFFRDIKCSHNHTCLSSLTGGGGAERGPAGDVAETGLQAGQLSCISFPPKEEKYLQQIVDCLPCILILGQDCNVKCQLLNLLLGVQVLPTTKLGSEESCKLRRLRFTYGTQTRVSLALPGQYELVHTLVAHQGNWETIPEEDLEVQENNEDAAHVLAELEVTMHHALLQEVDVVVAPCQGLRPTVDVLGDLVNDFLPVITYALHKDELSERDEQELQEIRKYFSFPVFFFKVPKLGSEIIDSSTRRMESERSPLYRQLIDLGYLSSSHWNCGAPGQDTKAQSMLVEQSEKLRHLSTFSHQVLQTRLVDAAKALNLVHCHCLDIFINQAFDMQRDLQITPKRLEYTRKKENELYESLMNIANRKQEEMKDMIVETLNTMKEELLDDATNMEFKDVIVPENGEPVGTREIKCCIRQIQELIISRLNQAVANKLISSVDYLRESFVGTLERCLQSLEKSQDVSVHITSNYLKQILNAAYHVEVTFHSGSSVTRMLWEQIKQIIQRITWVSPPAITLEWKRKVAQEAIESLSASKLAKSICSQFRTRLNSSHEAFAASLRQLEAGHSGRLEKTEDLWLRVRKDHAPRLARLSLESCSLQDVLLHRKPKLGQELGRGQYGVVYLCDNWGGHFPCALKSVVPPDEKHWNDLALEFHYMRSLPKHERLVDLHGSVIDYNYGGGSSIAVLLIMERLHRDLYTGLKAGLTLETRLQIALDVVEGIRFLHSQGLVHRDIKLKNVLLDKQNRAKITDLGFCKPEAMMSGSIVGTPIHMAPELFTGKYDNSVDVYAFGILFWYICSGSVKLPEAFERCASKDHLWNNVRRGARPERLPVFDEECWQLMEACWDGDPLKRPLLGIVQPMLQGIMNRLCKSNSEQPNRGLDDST
Chain of UniProt P35372 (whole entry, looked up): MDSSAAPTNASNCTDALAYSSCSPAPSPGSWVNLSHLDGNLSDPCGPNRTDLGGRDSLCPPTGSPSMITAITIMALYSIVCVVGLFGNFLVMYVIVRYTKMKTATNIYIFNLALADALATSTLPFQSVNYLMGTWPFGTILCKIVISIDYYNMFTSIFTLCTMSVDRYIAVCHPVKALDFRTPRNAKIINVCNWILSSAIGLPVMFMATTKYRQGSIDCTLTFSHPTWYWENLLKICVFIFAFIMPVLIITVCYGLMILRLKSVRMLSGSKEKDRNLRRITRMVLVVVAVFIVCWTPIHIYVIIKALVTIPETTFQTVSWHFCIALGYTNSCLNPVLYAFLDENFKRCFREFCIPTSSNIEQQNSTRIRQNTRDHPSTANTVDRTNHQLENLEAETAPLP
Chain of UniProt Q13546 (whole entry, looked up): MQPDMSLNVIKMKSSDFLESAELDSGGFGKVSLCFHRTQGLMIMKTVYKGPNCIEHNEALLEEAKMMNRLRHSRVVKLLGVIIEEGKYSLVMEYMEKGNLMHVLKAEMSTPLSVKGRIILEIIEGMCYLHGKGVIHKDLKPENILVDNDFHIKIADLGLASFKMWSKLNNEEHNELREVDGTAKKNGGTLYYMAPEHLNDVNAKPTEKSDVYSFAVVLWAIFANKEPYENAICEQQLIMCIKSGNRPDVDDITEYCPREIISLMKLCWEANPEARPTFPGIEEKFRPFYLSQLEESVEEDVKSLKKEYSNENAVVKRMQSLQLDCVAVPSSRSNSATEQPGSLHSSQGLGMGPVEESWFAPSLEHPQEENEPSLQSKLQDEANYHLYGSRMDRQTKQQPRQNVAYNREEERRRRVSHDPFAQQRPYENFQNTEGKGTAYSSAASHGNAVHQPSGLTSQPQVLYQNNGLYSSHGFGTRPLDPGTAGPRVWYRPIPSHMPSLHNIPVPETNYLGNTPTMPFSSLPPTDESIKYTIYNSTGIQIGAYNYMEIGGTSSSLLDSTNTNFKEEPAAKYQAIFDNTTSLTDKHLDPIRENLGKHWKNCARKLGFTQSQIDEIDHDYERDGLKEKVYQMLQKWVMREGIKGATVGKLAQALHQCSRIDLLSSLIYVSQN

Compound | target | test | test system | conditions | endpoint | value
[2H]c1c([2H])c([C@]2([2H])CCCN2C(=O)C(C)(C)Oc2ccc3cn[nH]c3c2)c([2H])c([2H])c1C([2H])([2H])[2H] | PIK3CD | binding, competition with immobilised ligand |  | 1 µM | remaining binding | 96%
Oc1cccc(N2[C@@H]3CC[C@H]2CN(CC2CC2)C3)c1 | Mu-type opioid receptor (OPRM1, Homo sapiens, UniProt P35372) | cAMP, agonist | OPRM1 |  | Emax | 78.6%
Cc1ncsc1-c1ccc([C@H](CC(=O)N2CCN(c3ccc(C#Cc4ccc(C(=O)N5CCC(n6cc(-c7ccc8c(c7)CCN8C(=O)Cc7cccc(OC(F)(F)F)c7)c7c(N)ncnc76)CC5)cc4)cn3)CC2)NC(=O)[C@@H]2C[C@@H](O)CN2C(=O)[C@@H](NC(=O)C2(F)CC2)C(C)(C)C)cc1 | Receptor-interacting serine/threonine-protein kinase 1 (RIPK1, Homo sapiens, UniProt Q13546) | protein level, degrader, western blot | U-937 | 0.2 µM | Dmax | 99%
CCCCCc1ccccc1C/C=C\C/C=C\C/C=C\CCCC(=O)N[C@H](C)CO | Cannabinoid receptor 2 (CNR2, Homo sapiens, UniProt P34972) | β-arrestin recruitment, agonist |  |  | Emax | 51%
Cc1nn(C)cc1-c1nc2c(N3CCN(Cc4ccc(Cl)cc4)CC3)c(Cl)cnc2[nH]1 | Dual serine/threonine and tyrosine protein kinase (DSTYK, Homo sapiens, UniProt Q6XUX3) | binding, competition with immobilised ligand |  | 1 µM | remaining binding | 100%
COc1ncccc1-c1cnn2ccc(N3CCN(C(=O)OC(C)C)CC3)nc12 | Cyclin-dependent kinase 14 (CDK14, Homo sapiens, UniProt O94921) | binding, competition with immobilised ligand |  | 1 µM | remaining binding | 90%
Nc1ncc(-c2nc(N3CCOCC3)nc(N3CCOCC3)n2)c(C(F)F)n1 | PIK3CD | binding, competition with immobilised ligand |  | 10 µM | remaining binding | 0%
CCN(CC)CCCC[C@H](NC(=O)[C@H](CC(C)C)NC(=O)[C@H](C)NC(=O)[C@H](Cc1ccccc1)NC(=O)c1ccc(C(C)(C)C)cc1)C(=O)N[C@@H](CO)C(=O)OC | Histone acetyltransferase KAT2B (KAT2B, Homo sapiens, UniProt Q92831) | thermal stability, DSF |  | 25 µM | ΔTm | -0.07 °C

Repeated from above:
Compound | target | test | test system | conditions | endpoint | value
Nc1ncc(-c2nc(N3CCOCC3)nc(N3CCOCC3)n2)c(C(F)F)n1 | PIK3CD | binding, competition with immobilised ligand |  | 10 µM | remaining binding | 0%
